Results of several laboratories.
Numbered parts are unrelated; each lists some results of a single study. Changes are numbered by the printed parent chain.

Series 1
Target: Sal-like protein 4, full length isoform A (SALL4, Homo sapiens, UniProt Q9UJQ4, residues 1-1053)
UniProt Q9UJQ4, sequence (whole entry, looked up): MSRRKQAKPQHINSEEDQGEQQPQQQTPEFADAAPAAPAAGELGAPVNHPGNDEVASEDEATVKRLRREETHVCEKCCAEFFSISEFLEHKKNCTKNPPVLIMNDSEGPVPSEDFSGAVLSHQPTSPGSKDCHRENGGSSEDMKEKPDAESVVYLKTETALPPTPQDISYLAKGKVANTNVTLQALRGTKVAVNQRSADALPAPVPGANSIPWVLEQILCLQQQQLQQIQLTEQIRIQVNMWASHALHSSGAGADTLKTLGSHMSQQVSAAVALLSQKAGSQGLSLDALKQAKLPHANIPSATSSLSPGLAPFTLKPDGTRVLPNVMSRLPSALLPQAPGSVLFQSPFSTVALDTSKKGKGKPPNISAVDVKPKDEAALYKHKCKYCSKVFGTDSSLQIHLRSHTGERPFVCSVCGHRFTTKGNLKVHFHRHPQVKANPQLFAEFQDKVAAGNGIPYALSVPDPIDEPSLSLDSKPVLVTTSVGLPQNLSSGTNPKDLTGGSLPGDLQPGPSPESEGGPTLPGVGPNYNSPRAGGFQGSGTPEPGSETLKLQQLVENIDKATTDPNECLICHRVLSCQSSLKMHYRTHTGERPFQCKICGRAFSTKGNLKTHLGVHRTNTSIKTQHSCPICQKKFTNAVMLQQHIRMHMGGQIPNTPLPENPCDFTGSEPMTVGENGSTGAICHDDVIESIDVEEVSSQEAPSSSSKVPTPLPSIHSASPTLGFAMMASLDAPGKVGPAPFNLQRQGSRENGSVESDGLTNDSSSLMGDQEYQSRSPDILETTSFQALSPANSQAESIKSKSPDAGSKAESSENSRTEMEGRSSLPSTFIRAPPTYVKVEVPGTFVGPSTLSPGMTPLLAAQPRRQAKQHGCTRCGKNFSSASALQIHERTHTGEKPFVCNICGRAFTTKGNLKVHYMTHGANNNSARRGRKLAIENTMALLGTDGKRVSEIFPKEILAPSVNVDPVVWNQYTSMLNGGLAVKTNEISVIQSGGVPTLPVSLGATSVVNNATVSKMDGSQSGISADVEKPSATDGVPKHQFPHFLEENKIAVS
Technique: universal PBM
Form: double-stranded DNA, one strand shown
Sample: in vitro
Tested at: 600 nM
Setting: 8-mer, flanks averaged, mean of replicates
Reading: higher = stronger binding
Strand	E-score
GGGCAAAA	0.0516
AAGTTTAT	0.347
AGTATTCG	0.176
CGTCCTCA	-0.0878
AAGTTCCA	0.0282
GGTTGAGA	-0.123
AGGACCAT	-0.156
ATCGTATC	0.121
AGACCCCA	-0.131
ACAAGTCA	0.0367
GCAGCTGC	-0.126
CATGTGCG	-0.0154

Series 2
Target: RNA binding protein fox-1 homolog 2, RRM domain, GST-SBP tag (RBFOX2, Homo sapiens, UniProt O43251-10, residues 100-194)
Technique: RNA Bind-n-Seq
Form: RNA
Sample: in vitro
Tested at: 365 nM
Setting: natural RNA segment, single round, ends assumed
Baseline: no-protein control
Reading: higher = stronger binding
All sequences stand within: GGGAGUUCUACAGUCCGACGAUC … UGGAAUUCUCGGGUGCCAA
Residues (chain): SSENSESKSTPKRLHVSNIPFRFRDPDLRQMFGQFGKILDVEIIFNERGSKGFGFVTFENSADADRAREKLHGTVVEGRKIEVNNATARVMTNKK
Strand	RBNS enrichment (R)
GCUGGCAGCUUUGACAGAAACUCUUCCGUGGUCGGCCUUUCACCUCUUCACUUUCGCUUGGUCCCAGCAGGACCUGAUGGCCACGCGUGCCUUGGCCACAGGAAGCUGCC	0.704
UGUGCCCAUCUGUAAAGGGGCAGCUGACAGUUUGUGGCAUCUUGCCAAGGGUCCCUGUGUGUGUGUAUGUGUGUGCAUGUGUGCGUGUCUCCAUGUGCGUCCAUAUUUAA	1.93
UCUGUCCAGAGGCUUUAAAACUGGUGCAAUUACAGCAAAAAGGGAUUCUGUAGCUUUAACUUGUAAACCACAUCUUUUUUGCACUUUUUUUAUAAGCAAAAACGUGCCGU	0.377
ACCCCUGUGGAGGGGCUGCUGUGGGCCCUGACCUCCAAGCUCCUGCCUCACCGUCUGCCUUGCUCCUCUCUUCCCAAAUCAUCACCGCCAUGGGCCCAGCCCCAAAGGGC	0.682
CCAAAUAUUCAGUACCUUGGGCAAUCCAGGAAGGGUUUAAAGAGACCUGUUGCUGCAUAGAACUCUCCCUGCCCUACCCCUUAACUCCACCUUAGUGCCAGGGCCGAGGG	0.256
GUAAGGGGAGGCUGCCUCACUUUGAAGGAAUGGUGUUGGCUAACAGGAUCCAUGAAAUUCCUAGGUCAGUUGAAUAAUAACUGAACUACUGGUUUGACUGUGGAUUAUUU	0.856
AAGGAAACAAAGAGUGCUUUUGGGCAUCCAACAGUUAAUCACUUAUGUUUUUAGAGCAUGCAAUCUUAACUUUGUUAAACUAUUAUUAUUGAUCACAUUUUGAUUUUUUU	4.75
UUGGUUUUGGUUUUUUGUUCUUCAUACUCAAGUGUCUCCGUUGGUCCAGAUACUUCUCUGUGAAAGUGGCCUCUCUACAGGGUGCCGUUCUGUUUUUUCCCAGUAGUACA	0.57
UGCUUUUCACAUAAAAUUGAGACAGUGUAUAUUUAAUCUAAUUUAAAUUUUAAAGAGAUACUGGUAUUUUGAAAAUGCAACCUAUAUAUAUUCUUAAUAUCCUUUUAAGA	0.781
ACACAUUUUUAAUGUAUUAAAAUUUGGUAAUUAUGUGUACAUUAAAUUAAUAAAAGUUACUUCUAGUUAUGAUUUGUGAAUUCCCUAAGACCUUGGAUUUUUUUAAGUAA	0.88
GAUAGUUGCUCACACACCAUUGAGCAAACGUGUCUUGUUCCUUGUAUCUCUUUUCUUCCAGCCCUGAGUGGCUGCGCUGCUGCCAUAUGUGACAAGUGGUCCUCACCAGU	0.222

Series 3
Target: CCNE2, cyclin fold, Cln2 fusion (human)
Technique: yeast growth competition, sequencing
Sample: yeast
Setting: strong parent motif
Baseline: not given
Reading: higher = stronger binding
Starting sequence: CDKN1B docking peptide (human); PSACRNLFGPVDH
Change	normalised enrichment score
PFACRNLFGPVDH [S2F]	0.863
PSATRNLFGPVDH [C4T]	0.459
PNACRNLFGPVDH [S2N]	1.43
PSACRNLFGPVDQ [H13Q]	1.46
PSCCRNLFGPVDH [A3C]	2.43
PSACRNLFGPVYH [D12Y]	1.39
PSACRNLFFPVDH [G9F]	0.876
PSAPRNLFGPVDH [C4P]	0.144
PSACLNLFGPVDH [R5L]	0.0477
PSACRNLFAPVDH [G9A]	0.964
PSACRNLFRPVDH [G9R]	-0.126
PSACRNLFGPVFH [D12F]	0.82
PSACRNLFGNVDH [P10N]	1.62
PSARRNLFGPVDH [C4R]	1.78

Single results of other studies
Substance	target	assay	system	setting	scale	quantity	result
PhoQ, residues 284 288 289 292 302 303 TTSMTC	PhoP, residues 12 14 15 18 19 LFHKL (Escherichia coli, UniProt P23836)	Sort-seq, measured: YFP reporter	E. coli	PhoQ-PhoP variant library, together with: 10 µM Mg2+	baseline: high Mg2+ state, higher = stronger signaling	fold induction	2.73

Repeated from above (series 2):
Strand	RBNS enrichment (R)
GUAAGGGGAGGCUGCCUCACUUUGAAGGAAUGGUGUUGGCUAACAGGAUCCAUGAAAUUCCUAGGUCAGUUGAAUAAUAACUGAACUACUGGUUUGACUGUGGAUUAUUU	0.856
AAGGAAACAAAGAGUGCUUUUGGGCAUCCAACAGUUAAUCACUUAUGUUUUUAGAGCAUGCAAUCUUAACUUUGUUAAACUAUUAUUAUUGAUCACAUUUUGAUUUUUUU	4.75
UUGGUUUUGGUUUUUUGUUCUUCAUACUCAAGUGUCUCCGUUGGUCCAGAUACUUCUCUGUGAAAGUGGCCUCUCUACAGGGUGCCGUUCUGUUUUUUCCCAGUAGUACA	0.57
UGCUUUUCACAUAAAAUUGAGACAGUGUAUAUUUAAUCUAAUUUAAAUUUUAAAGAGAUACUGGUAUUUUGAAAAUGCAACCUAUAUAUAUUCUUAAUAUCCUUUUAAGA	0.781
ACACAUUUUUAAUGUAUUAAAAUUUGGUAAUUAUGUGUACAUUAAAUUAAUAAAAGUUACUUCUAGUUAUGAUUUGUGAAUUCCCUAAGACCUUGGAUUUUUUUAAGUAA	0.88
